Measurements of several laboratories.
Compare with care: the assays were run in different laboratories. Values joined by “and” are separate records of one study, mostly repeats; a detail may differ. ± marks the error that the study gave.

Under “maximum platelet reduction”, `CC1(C)CCC(CN2CCN(c3ccc(C(=O)NS(=O)(=O)c4ccc(NCC5COCCO5)c([N+](=O)[O-])c4)c(N4CCCOc5nc6[nH]ccc6cc54)c3)CC2)=C(c2ccc(Cl)cc2)C1` (stereo not drawn) is recorded as 17% (male Beagle dogs, whole blood; oral, 25 mg/kg).
`CCCC(CCC)NC(=O)c1ccc(OC)c(OC2OC(C(=O)O)C(O)C(O)C2O)c1` (stereo not drawn) gave a peak area of 698000 cps (LC-MS extracted ion chromatogram; Sprague-Dawley rat, male and female, pooled plasma; oral, 200 mg/kg, 1 h).
`C=CC(=O)Nc1cc(Nc2nccc(-n3ccc4nc(OC)ccc43)n2)c(OC)cc1N(C)CCN(C)C` gave a concentration of 927 ng/g (BALB/c nude mouse, H1975 intracranial tumour, tumour-free brain; oral, 60 mg/kg, 1 h).
For `O=[11C](N1CCC(CNS(=O)(=O)c2ccc(Cl)cc2)CC1)n1cncn1`, the washout ratio was 1 (PET; Sprague-Dawley rat, brain; intravenous; baseline: SUV 5 min over SUV 60 min).
`CC(C)[C@H](NC(=O)[C@@H]1CCCN1C(=O)[C@H](CCCNC(=N)N)NC(=O)[C@H](CS)NC(=O)[C@H](Cc1c[nH]c2ccccc12)NC(=O)[C@H](CCCNC(=N)N)NC(=O)[C@@H](Cc1ccccc1)NC(=O)[C@H](Cc1c[nH]cn1)NC(=O)[C@H](CCC(=O)O)NC(=O)[C@H](CS)NC(=O)[C@H](CS)NC(=O)[C@@H]1CC(=O)N[C@@H](CCCNC(=N)N)C(=O)NCC(=O)N[C@@H](CC(=O)O)C(=O)N[C@H](Cc2ccc(O)cc2)C(=O)N1)C(N)=O` [technetium-99m labelled]: “tumour to tissue ratio” 21.8 (C57 mouse, female, B16/F1 melanoma; intravenous, 0.037 MBq, 2 h; baseline: tumour over blood).
For `O=C([O-])CN1CCN(CC(=O)[O-])CCN(CC(=O)NCC2CCC(C(=O)NC(Cc3ccc4ccccc4c3)C(=O)NCCCCC(NC(=O)NC(CCC(=O)O)C(=O)O)C(=O)O)CC2)CCN(CC(=O)[O-])CC1.[44Sc+3]` (stereo not drawn), the residence time was 0.26 h (PET/CT dosimetry; human patients, kidneys; mean of 4 patients).
Under “activated partial thromboplastin time”, `CCCCCCCCCCCCCCCC(=O)N[C@@H](CCCCN)C(=O)N[C@@H](CCCCN)C(=O)N[C@@H](CO)C(=O)N[C@@H](CCCNC(=N)N)C(=O)N[C@@H](C)C(=O)N[C@@H](CC(C)C)C(=O)N[C@@H](Cc1ccccc1)C(N)=O` is recorded as 30.5 ± 1.1 s (cynomolgus monkey, male; 3 mg/kg, day 1).
`CCCCCC(O)C=CC1OC2OC(C2F)C1CC=CCCCC(=O)O` (stereo not drawn) has a hydrolysis half-life of 20 days (phosphate buffer with DMSO; concentration not given, pH 7.40).
`CC(C)c1cnc(-c2cc(Cl)ccc2F)cc1Nc1ccncc1C(=O)NC(CO)CO` — result for “patients with treatment-related adverse event”: 0% (monotherapy, measured: vomiting; human patients; oral, dose not given, grade 2, phase I A).
With `CCCCCCCCCCCCCCCCCC(=O)Nc1ccn(C2OC(CO)C(O)C2(F)F)c(=O)n1` (stereo not drawn) the Vss was 23.9 ± 1.6 mL (mouse; iv bolus, 30 mg/kg gemcitabine equivalent).
`COC(=O)c1ccc(-c2cn(Cc3cc(Cl)ccc3O[11CH3])nn2)cc1`: “distribution volume (VT)” 0.451 mL/cm³ (PET Logan plot; rhesus monkey, white matter; dose not given, t* 40 min).
For `[2H]C([2H])([2H])NC(=O)c1ccc(N2C(=S)N(c3ccc(C#N)c(C(F)(F)F)c3)C(=O)C2(C)C)cc1F`, tolerability read “not toxic” (healthy Chinese men; oral, 40 to 160 mg, fasting, and fed (high-fat meal)).
`COc1c2c(cc3oc(COC4OC(CO)C(O)C(O)C4O)cc(=O)c13)OC(C(C)(C)O)C2` (stereo not drawn) has a transformation rate of 99.6% (simulated intestinal fluid with pancreatin; 2 h, pH 6.8, 37 °C).
For `C[N+](C)(C)CC(CC(=O)[O-])OC(=O)CCC(=O)Nc1ccn([C@@H]2O[C@H](CO)[C@@H](O)C2(F)F)c(=O)n1` (stereo partly drawn), the measured concentration was 111 ± 2.3 ng/mL (THU-treated rat plasma; 125.00 ng/mL, 2 months, -80 °C, frozen storage, mid QC).
With `OCc1cn(Cc2ccc(-c3noc(-c4ccc(OCC[18F])c(C(F)(F)F)c4)n3)cc2)nn1` the tissue uptake was 4.21 ± 0.21 %ID/g (Lewis rat, female, liver; intravenous, 1 h).
`Cn1c(=O)c2c(nc(CN3CCN(C(=O)C4CC4)CC3)n2Cc2ccccc2)n(C)c1=O` gave a half-life of 26 min (metabolic stability; rat, liver microsomes).
`CC(C)[C@H](NC(=O)[C@@H]1CCCN1C(=O)[C@H](CCCNC(=N)N)NC(=O)[C@H](CS)NC(=O)[C@H](Cc1c[nH]c2ccccc12)NC(=O)[C@H](CCCNC(=N)N)NC(=O)[C@@H](Cc1ccccc1)NC(=O)[C@H](Cc1c[nH]cn1)NC(=O)[C@H](CCC(=O)O)NC(=O)[C@H](CS)NC(=O)[C@H](CS)NC(=O)COCCOCCNC(=O)[C@@H]1CC(=O)N[C@@H](CCCNC(=N)N)C(=O)NCC(=O)N[C@@H](CC(=O)O)C(=O)N[C@H](Cc2ccc(O)cc2)C(=O)N1)C(N)=O` [technetium-99m labelled] has a tissue uptake of 0.2 ± 0.01 %ID/g (nude mouse, M21 melanoma xenograft, heart; intravenous, 2 h).
Under “share of radioactivity”, `COc1cc(N(C)CCN(C)C)c(NC(=O)CCSCC(N)C(=O)O)cc1Nc1nccc(-c2cn(C3CC3)c3ccccc23)n1` (stereo not drawn) is recorded as 1.94% (radio-HPLC; human, feces; dose not given, 48 to 96 h, sample holds 20.06% dose; baseline: sample radioactivity).
`Nc1nc2cnc(C(=O)N3CCOC[C@@H]3c3ccc(C(F)(F)F)cc3)cc2c2c1COC2`: tolerability “not toxic” (human; oral, 1200 mg once daily).
`Cc1[nH]c(/C=C2\C(=O)Nc3ccc(F)cc32)c(C)c1NC(=O)CCN1CCN(C)CC1` has a measured concentration of 39.7 ng/mL (dog plasma; 40 ng/mL nominal, 24 h, 25 °C, processed samples at room temperature).
`COCCOCCOCCOCCOCCOCCOCCOCCC(=O)NCCCc1cc2cc3nc(cc4[nH]c(cc5nc(c(OC)c1[nH]2)C(=O)C5(C)C)cc4CCc1ccc(C(=O)O)cc1)CC3(C)C`: “Qy absorption maximum” 679 nm (DMF; room temperature).
For `Cn1c(=O)oc2ccc(-c3ccc(CC(C#N)NC(=O)C4CNCCCO4)c(F)c3)cc21` (stereo not drawn), “treatment-related adverse event incidence” read 0% (measured: alanine aminotransferase increased; human volunteers; oral, 40 mg, single ascending dose fed).
`N[C@@H]1CCCC[C@H]1N.O=C1[O][Pt]2([O]C1=O)[O]C(=O)C(=O)[O]2` has a decomposition of 10% (water; 24 h, 37 °C).
For `O=C(c1cccc(N=Nc2ccc(OC3CC(N4CCCCC4)C3)cc2)c1)N1CCCC1` (stereo not drawn), the photoisomerization half-life was 0.0667 ± 0.00333 min (Tris-HCl buffer, 1% DMSO-d6; 25 µM, pH 7.4, illumination 360 ± 20 nm).
`COc1ccc(-c2csc(N/N=C(\C)c3cc(O)cc(O)c3)n2)cc1`: “bench-top stability change” 9.07% and 6.2% (LC-MS/MS; rat plasma; 1000 ng/mL, 5 h, 25 °C).
`Cc1cc(O)cc(O)c1C(=O)c1c2c3c(c(O)cc(C)c3oc1=O)C(=O)c1c(O)cc(O)cc1-2`: “micronucleated PCEs per 1000 PCEs” 16 ± 2.16 (mouse, bone marrow; intraperitoneal, 400 mg/kg, 30 h).
For `Cc1ncc2c(n1)CN(C(=O)Nc1nc(-c3cccs3)ccc1N)C2`, the Cmax was 10100 ± 4730 ng/mL (male beagle dogs; oral, 60 mg/kg daily, day 14).
For `CC(C)[C@H](NC(=O)CNC(=O)[C@H](CCC(N)=O)NC(=O)[C@H](C)N)C(=O)O`, the AUC(0-t) was 1510 ng·h/mL (human, both sexes, plasma; intravenous infusion, 45 mg/kg/h, 2 h infusion, geometric mean).
The haemolysis of `C=CC(=C)CC[C@]1(C)[C@H](C)C[C@H](OC(=O)CCCCCCC)[C@@]23C(=C[C@H](OC(C)=O)C[C@@H]12)[C@@H](OC(C)=O)O[C@H]3OC(C)=O` is reported as 12.2% (haemolysis; 100 µM).
The Vss of `CCCCCCCCCCCCCCCCCC(=O)Nc1ccn(C2OC(CO)C(O)C2(F)F)c(=O)n1` (stereo not drawn) is reported as 0.387 ± 0.0323 L/kg (athymic nude mouse, female, BxPC-3 xenograft, plasma; intravenous, 25 mg/kg gemcitabine equivalent).

Some of these lines once more:
For `O=[11C](N1CCC(CNS(=O)(=O)c2ccc(Cl)cc2)CC1)n1cncn1`, the washout ratio was 1 (PET; Sprague-Dawley rat, brain; intravenous; baseline: SUV 5 min over SUV 60 min).
`COCCOCCOCCOCCOCCOCCOCCOCCC(=O)NCCCc1cc2cc3nc(cc4[nH]c(cc5nc(c(OC)c1[nH]2)C(=O)C5(C)C)cc4CCc1ccc(C(=O)O)cc1)CC3(C)C`: “Qy absorption maximum” 679 nm (DMF; room temperature).
